{"data": "Measured values collected from several papers", "note": "Several values in a cell are separate wells, animals, samples, runs or records. ± marks the error that the study gave."}
{"Structure (SMILES)": "CCOC(=O)C1=C[C@@H](OC(CC)CC)[C@H](NC(C)=O)[C@@H](N)C1", "organism": "influenza virus", "assay": "viral cytopathic effect, MTT", "system": "MDCK", "setting": "72 h", "quantity": "EC50", "value": "0.13 µM"}
{"Structure (SMILES)": "Nc1ccn(C[C@@H](CO)OCP(=O)(O)O)c(=O)n1", "organism": "vesicular stomatitis virus", "assay": "viral replication", "system": "HEL", "quantity": "EC50", "value": "> 250 µM"}
{"Structure (SMILES)": "OC(Cn1cncn1)(Cn1cncn1)c1ccc(F)cc1F", "organism": "Saccharomyces cerevisiae", "assay": "cell growth", "system": "Pdr5 deleted, empty vector", "setting": "2^-4.322 µg/mL", "quantity": "OD600", "value": "1.02 and 1 and 0.999"}
{"Structure (SMILES)": "Nc1ncc(Br)c2c1ncn2[C@@H]1C=C(CO)[C@@H](O)[C@H]1O", "organism": "vesicular stomatitis virus", "assay": "viral mRNA cap methylation", "system": "wild type, GFP-expressing", "setting": "concentration not given", "quantity": "methylated mRNA cap level", "value": "decreased"}
{"Structure (SMILES)": "NC(=O)c1nnn([C@@H]2C(F)=C(CO)[C@@H](O)[C@H]2O)c1N", "organism": "influenza virus", "assay": "viral cytopathic effect, MTT", "system": "MDCK", "setting": "72 h", "quantity": "EC50", "value": "> 100 µM"}
{"Structure (SMILES)": "CO/C=C(/C(=O)OC)c1ccccc1Oc1cc(Oc2ccccc2C#N)ncn1", "organism": "Fusarium graminearum", "assay": "fungal growth, inhibitor", "setting": "50 µg/mL", "quantity": "inhibition", "value": "64.8 ± 3.1%"}
{"Structure (SMILES)": "OCC1=C(F)[C@@H](n2nnc3c(NO)ncnc32)[C@H](O)[C@@H]1O", "organism": "influenza virus", "assay": "viral cytopathic effect, MTT", "system": "MDCK", "setting": "72 h", "quantity": "EC50", "value": "> 100 µM"}
{"Structure (SMILES)": "O=C(NNc1ccccc1)c1nnc(CC23CC4CC(CC(C4)C2)C3)o1", "organism": "Fusarium graminearum", "assay": "fungal growth, inhibitor", "setting": "50 µg/mL", "quantity": "inhibition", "value": "53.2 ± 2.6%"}
{"Structure (SMILES)": "C=C(CN(C(=O)c1c(C(F)F)nn(C)c1F)C1CC1)c1ccc(Cl)cc1Cl", "organism": "Fusarium graminearum", "assay": "spore germination", "quantity": "EC50", "value": "0.0814 µg/mL"}
{"Structure (SMILES)": "COc1cc(NC(=O)Cn2ccc3cc(F)c(-c4cnn(C)c4)cc32)cc(OC)c1OC", "organism": "Plasmodium falciparum", "system": "recrudescent Dd2-B2, PfATP4 V178I", "setting": "flask 1", "scale": "relative to: Dd2-B2", "quantity": "IC90 fold shift", "value": 136}
{"Structure (SMILES)": "O=C(NNc1ccc(F)c(F)c1)c1nnc(CC23CC4CC(CC(C4)C2)C3)o1", "organism": "Fusarium graminearum", "assay": "fungal growth, inhibitor", "setting": "50 µg/mL", "quantity": "inhibition", "value": "100%"}
{"Structure (SMILES)": "CS(=O)(=O)Nc1ncn(-c2cc(F)c(COc3ccc(OS(=O)(=O)F)cc3)c(F)c2)n1", "organism": "Mycobacterium tuberculosis", "system": "NIH_G36, drug-resistant, lineage 2", "quantity": "MIC", "value": "9.8 nM"}
{"Structure (SMILES)": "O=C(NNc1cccc(Cl)c1)c1nnc(CC23CC4CC(CC(C4)C2)C3)o1", "organism": "Fusarium graminearum", "assay": "fungal growth, inhibitor", "quantity": "EC50", "value": "> 50 µg/mL"}
{"Structure (SMILES)": "Nc1nc2c(ncn2COCCO)c(=O)[nH]1", "organism": "vesicular stomatitis virus", "assay": "viral replication", "system": "HEL", "quantity": "EC50", "value": "> 250 µM"}
{"Structure (SMILES)": "Cc1ccc(NNC(=O)c2nnc(CC34CC5CC(CC(C5)C3)C4)o2)cc1", "organism": "Fusarium graminearum", "assay": "fungal growth, inhibitor", "setting": "50 µg/mL", "quantity": "inhibition", "value": "47.9 ± 2.3%"}
{"Structure (SMILES)": "OC(Cn1cncn1)(Cn1cncn1)c1ccc(F)cc1F", "organism": "Sporothrix schenckii", "assay": "broth microdilution", "system": "CFP 00746", "setting": "50% inhibition endpoint", "quantity": "MIC", "value": "64 µg/mL"}
{"note": "A few entries again:"}
{"Structure (SMILES)": "O=C(NNc1ccc(F)c(F)c1)c1nnc(CC23CC4CC(CC(C4)C2)C3)o1", "organism": "Fusarium graminearum", "assay": "fungal growth, inhibitor", "setting": "50 µg/mL", "quantity": "inhibition", "value": "100%"}
